Assay results collected from several papers.
Compare with care: the assays were run in different laboratories. In brackets after ≈: the same amount, converted by molar mass.
Organism: Pseudomonas aeruginosa

Structure (SMILES) | assay | system | setting | how to read | quantity | result
CCCCCCCCCC(=O)NCC(=O)N[C@@H](CC(C)C)C(=O)N[C@@H](CC(C)C)C(=O)N[C@@H](CCCCN)C(=O)N[C@@H](CCCNC(=N)N)C(=O)N[C@H](C(=O)N[C@@H](CCCCN)C(=O)N[C@H](C(=O)N[C@@H](CC(C)C)C(=O)N[C@@H](CC(C)C)C(N)=O)[C@@H](C)O)[C@@H](C)CC | checkerboard | ATCC 27853 | added: polymyxin B | – | FIC index | 0.375
CN1CC(=O)N=C1N.C[C@H](CCC(=O)O)[C@H]1CC[C@H]2[C@@H]3[C@H](O)C[C@@H]4C[C@H](O)CC[C@]4(C)[C@H]3CC[C@]12C | – | TISTR357 | 1 mg per disc, 18 to 24 h, 37 °C | – | antibacterial activity | inactive
O=C1NC(=O)c2c(NCCCc3cccc(O)c3)cccc21 | – | PAO1 | concentration not given, 18 h, added: levofloxacin 0.5 µg/mL | relative to: levofloxacin alone | survival reduction | ~50 fold
CC[C@H](C)[C@H](NC(=O)[C@H](CCCCN)NC(=O)[C@H](CCCCN)NC(=O)[C@H](CC(C)C)NC(=O)[C@H](CCCCN)NC(=O)[C@H](CCC(=O)O)NC(=O)[C@H](CCCCN)NC(=O)[C@@H](NC(=O)[C@H](CCCCN)NC(=O)[C@H](CC(N)=O)NC(=O)[C@H](CCCNC(=N)N)NC(=O)[C@H](Cc1ccccc1)NC(=O)[C@H](CCCCN)NC(=O)[C@H](CCCNC(=N)N)NC(=O)[C@H](CC(C)C)NC(=O)[C@H](CCCNC(=N)N)NC(=O)[C@H](CCCCN)NC(=O)[C@H](CCCNC(=N)N)NC(=O)[C@@H](N)CC(C)C)[C@@H](C)CC)C(=O)NCC(=O)N[C@@H](CCC(N)=O)C(=O)N[C@@H](CCCCN)C(=O)N[C@H](C(=O)N[C@@H](CCC(N)=O)C(=O)NCC(=O)N[C@@H](Cc1ccccc1)C(=O)N[C@H](C(=O)N1CCC[C@H]1C(=O)N[C@@H](CCCCN)C(=O)N[C@@H](CC(C)C)C(=O)O)C(C)C)[C@@H](C)CC | inhibition zone method | 11082603, LB 0.8% agar with 154 mM NaCl | overnight, 37 °C | – | lethal concentration | 2.66 µM
CC[C@H](C)[C@H](NC(=O)[C@H](CCCNC(=N)N)NC(=O)[C@H](CCCCN)NC(=O)[C@H](CC(C)C)NC(=O)[C@H](CC(C)C)NC(=O)CN)C(=O)N[C@@H](CCCCN)C(=O)N[C@H](C(=O)N[C@@H](CC(C)C)C(=O)N[C@@H](CC(C)C)C(=O)NCCCC[C@H](NC(=O)[C@H](CC(C)C)NC(=O)[C@H](CC(C)C)NC(=O)[C@@H](NC(=O)[C@H](CCCCN)NC(=O)[C@@H](NC(=O)[C@H](CCCNC(=N)N)NC(=O)[C@H](CCCCN)NC(=O)[C@H](CC(C)C)NC(=O)[C@H](CC(C)C)NC(=O)CN)[C@@H](C)CC)[C@@H](C)O)C(=O)NCCCC[C@H](NC(=O)[C@H](CCCCNC(=O)[C@H](CC(C)C)NC(=O)[C@H](CC(C)C)NC(=O)[C@@H](NC(=O)[C@H](CCCCN)NC(=O)[C@@H](NC(=O)[C@H](CCCNC(=N)N)NC(=O)[C@H](CCCCN)NC(=O)[C@H](CC(C)C)NC(=O)[C@H](CC(C)C)NC(=O)CN)[C@@H](C)CC)[C@@H](C)O)NC(=O)[C@H](CC(C)C)NC(=O)[C@H](CC(C)C)NC(=O)[C@@H](NC(=O)[C@H](CCCCN)NC(=O)[C@@H](NC(=O)[C@H](CCCNC(=N)N)NC(=O)[C@H](CCCCN)NC(=O)[C@H](CC(C)C)NC(=O)[C@H](CC(C)C)NC(=O)CN)[C@@H](C)CC)[C@@H](C)O)C(N)=O)[C@@H](C)O | checkerboard | ATCC 27853 | added: polymyxin B | – | FIC index | 0.25
NCCCC[C@H](NC(=O)[C@@H]1CSCC(=O)N[C@@H](CCCCN)C(=O)N[C@@H](Cc2ccccc2)C(=O)N[C@@H](CCCCN)C(=O)NCCCC[C@@H]2NC(=O)[C@H](CCCCN)NC(=O)[C@H](Cc3ccccc3)NC(=O)[C@H](CCCCN)NC(=O)CSC[C@H](NC(=O)[C@H](Cc3ccccc3)NC(=O)[C@H](Cc3ccccc3)NC(=O)[C@H](CCCCN)NC2=O)C(=O)N[C@@H](Cc2ccccc2)C(=O)N[C@@H](Cc2ccccc2)C(=O)N[C@@H](Cc2ccccc2)C(=O)N1)C(N)=O | – | PAO1 | 24 to 25 h | – | minimal biofilm inhibitory concentration | 32 µg/mL
CC[C@H](C)[C@H](NC(=O)[C@H](Cc1c[nH]cn1)NC(=O)[C@H](CCCCNC(=O)[C@@H](NC(=O)[C@H](CCCCN)NC(=O)CSC[C@H](NC(=O)[C@H](Cc1ccccc1)NC(=O)[C@H](CCCCNC(=O)[C@H](CC(C)C)NC(=O)[C@@H]1CCCN1C(=O)[C@H](CCCCN)NC(=O)C[C@@H]1O[C@@H](C)[C@@H](O)[C@@H](O)[C@@H]1O)NC(=O)[C@H](CC(C)C)NC(=O)[C@@H]1CCCN1C(=O)[C@H](CCCCN)NC(=O)c1ccc(O[C@@H]2O[C@H](CO)[C@H](O)[C@H](O)[C@H]2O)cc1)C(N)=O)[C@@H](C)CC)NC(=O)[C@@H](NC(=O)[C@H](CCCCN)NC(=O)CSC[C@H](NC(=O)[C@H](Cc1ccccc1)NC(=O)[C@H](CCCCNC(=O)[C@H](CC(C)C)NC(=O)[C@@H]1CCCN1C(=O)[C@H](CCCCN)NC(=O)C[C@@H]1O[C@@H](C)[C@@H](O)[C@@H](O)[C@@H]1O)NC(=O)[C@H](CC(C)C)NC(=O)[C@@H]1CCCN1C(=O)[C@H](CCCCN)NC(=O)c1ccc(O[C@@H]2O[C@H](CO)[C@H](O)[C@H](O)[C@H]2O)cc1)C(N)=O)[C@@H](C)CC)C(N)=O | – | PAO1 | biofilm-forming conditions | – | MBC | > 45 µM
CC(C)[C@H](N)C(=O)N[C@H]1CSSC[C@@H](C(=O)N[C@H](C(N)=O)C(C)C)NC(=O)[C@H](Cc2c[nH]c3ccccc23)NC(=O)[C@H](CCCCN)NC(=O)[C@H](CCCCN)NC(=O)[C@H](Cc2c[nH]c3ccccc23)NC(=O)[C@H](CCCCN)NC(=O)[C@H](CCCNC(=N)N)NC(=O)[C@H](CCCCN)NC(=O)[C@H](Cc2c[nH]c3ccccc23)NC(=O)[C@H](CCCCN)NC(=O)[C@H](CCCCN)NC(=O)[C@H](Cc2c[nH]c3ccccc23)NC(=O)[C@H](CCCNC(=N)N)NC(=O)[C@H](CCCCN)NC1=O | – | CICC 21625 | 5 x MIC | – | time to complete killing | ≤ 1 min
CC[C@H](C)[C@H](NC(=O)[C@H](Cc1c[nH]cn1)NC(=O)[C@H](CCCCNC(=O)[C@@H](NC(=O)[C@H](CCCCN)NC(=O)CSC[C@H](NC(=O)[C@H](Cc1ccccc1)NC(=O)[C@H](CCCCNC(=O)[C@H](CC(C)C)NC(=O)[C@@H]1CCCN1C(=O)[C@H](CCCCN)NC(=O)CCS[C@@H]1O[C@H](CO)[C@H](O)[C@H](O)[C@H]1O)NC(=O)[C@H](CC(C)C)NC(=O)[C@@H]1CCCN1C(=O)[C@H](CCCCN)NC(=O)CCS[C@@H]1O[C@H](CO)[C@H](O)[C@H](O)[C@H]1O)C(N)=O)[C@@H](C)CC)NC(=O)[C@@H](NC(=O)[C@H](CCCCN)NC(=O)CSC[C@H](NC(=O)[C@H](Cc1ccccc1)NC(=O)[C@H](CCCCNC(=O)[C@H](CC(C)C)NC(=O)[C@@H]1CCCN1C(=O)[C@H](CCCCN)NC(=O)CCS[C@@H]1O[C@H](CO)[C@H](O)[C@H](O)[C@H]1O)NC(=O)[C@H](CC(C)C)NC(=O)[C@@H]1CCCN1C(=O)[C@H](CCCCN)NC(=O)CCS[C@@H]1O[C@H](CO)[C@H](O)[C@H](O)[C@H]1O)C(N)=O)[C@@H](C)CC)C(N)=O | biofilm formation | PAO1 | 24 h | – | MBIC | 30 µM
CC[C@H](C)[C@H](NC(=O)[C@H](CCCCN)NC(=O)[C@H](CCCCN)NC(=O)[C@H](CC(C)C)NC(=O)[C@H](CCCCN)NC(=O)[C@H](CCC(=O)O)NC(=O)[C@H](CCCCN)NC(=O)[C@@H](NC(=O)[C@H](CCCCN)NC(=O)[C@H](CC(N)=O)NC(=O)[C@H](CCCNC(=N)N)NC(=O)[C@H](Cc1ccccc1)NC(=O)[C@H](CCCCN)NC(=O)[C@H](CCCNC(=N)N)NC(=O)[C@H](CC(C)C)NC(=O)[C@H](CCCNC(=N)N)NC(=O)[C@H](CCCCN)NC(=O)[C@H](CCCNC(=N)N)NC(=O)[C@H](CC(C)C)NC(=O)CN)[C@@H](C)CC)C(=O)NCC(=O)N[C@@H](CCC(N)=O)C(=O)N[C@@H](CCCCN)C(=O)N[C@H](C(=O)N[C@@H](CCC(N)=O)C(=O)NCC(=O)N[C@@H](Cc1ccccc1)C(=O)N[C@H](C(=O)N1CCC[C@H]1C(=O)N[C@@H](CCCCN)C(=O)N[C@@H](CC(C)C)C(=O)N[C@@H](C)C(=O)N1CCC[C@H]1C(=O)N[C@@H](CCCNC(=N)N)C(=O)N[C@H](C(=O)N[C@@H](CC(=O)O)C(=O)N[C@@H](Cc1ccc(O)cc1)C(=O)O)[C@@H](C)O)C(C)C)[C@@H](C)CC | inhibition zone method | 11092618, LB 0.8% agar with 154 mM NaCl | overnight, 37 °C | – | lethal concentration | 2.91 µM
COc1ccc(-c2ccn(CC[C@](C)(C(=O)NO)S(C)(=O)=O)c(=O)c2)c(F)c1 | microbial growth | PAO1 | – | – | MIC90 | 0.5 µg/mL (≈ 1.21 µM)
CC[C@H](C)[C@H](NC(=O)[C@H](CCCCN)NC(=O)[C@H](CCCCN)NC(=O)[C@H](CC(C)C)NC(=O)[C@H](CCCCN)NC(=O)[C@H](CCC(=O)O)NC(=O)[C@H](CCCCN)NC(=O)[C@@H](NC(=O)[C@H](CCCCN)NC(=O)[C@H](CC(N)=O)NC(=O)[C@H](CCCNC(=N)N)NC(=O)[C@H](Cc1ccccc1)NC(=O)[C@H](CCCCN)NC(=O)[C@H](CCCNC(=N)N)NC(=O)[C@H](CC(C)C)NC(=O)[C@H](CCCNC(=N)N)NC(=O)[C@H](CCCCN)NC(=O)[C@H](CCCNC(=N)N)NC(=O)[C@H](CC(C)C)NC(=O)[C@@H](N)CC(C)C)[C@@H](C)CC)C(=O)NCC(=O)N[C@@H](CCC(N)=O)C(=O)N[C@@H](CCCCN)C(=O)N[C@H](C(=O)N[C@@H](CCC(N)=O)C(=O)NCC(=O)N[C@@H](Cc1ccccc1)C(=O)N[C@H](C(=O)N1CCC[C@H]1C(=O)N[C@@H](CCCCN)C(=O)N[C@@H](CC(C)C)C(=O)N[C@H](C(=O)N1CCC[C@H]1C(=O)N[C@@H](CCCNC(=N)N)C(=O)N[C@H](C(=O)N[C@@H](CCC(=O)O)C(=O)N[C@@H](CO)C(=O)O)[C@@H](C)O)C(C)C)C(C)C)[C@@H](C)CC | inhibition zone | O1 | LB agar, overnight | – | lethal concentration | 1.95 µM
Nc1ccccc1C(=O)NS(=O)(=O)OC[C@H]1O[C@@H](n2cnc3c(N)ncnc32)[C@H](O)[C@@H]1O | PQS production, LC-MS/MS | PA14 | 1500 µM, 20 h | – | inhibition | 77%

A few entries again:
Structure (SMILES) | assay | system | setting | how to read | quantity | result
NCCCC[C@H](NC(=O)[C@@H]1CSCC(=O)N[C@@H](CCCCN)C(=O)N[C@@H](Cc2ccccc2)C(=O)N[C@@H](CCCCN)C(=O)NCCCC[C@@H]2NC(=O)[C@H](CCCCN)NC(=O)[C@H](Cc3ccccc3)NC(=O)[C@H](CCCCN)NC(=O)CSC[C@H](NC(=O)[C@H](Cc3ccccc3)NC(=O)[C@H](Cc3ccccc3)NC(=O)[C@H](CCCCN)NC2=O)C(=O)N[C@@H](Cc2ccccc2)C(=O)N[C@@H](Cc2ccccc2)C(=O)N[C@@H](Cc2ccccc2)C(=O)N1)C(N)=O | – | PAO1 | 24 to 25 h | – | minimal biofilm inhibitory concentration | 32 µg/mL
